Published values of several laboratories.
Every numbered part comes from another study and shows a few of its results, in no order. Substitutions count along the parent as printed.

Block 1
Target: CCND2, cyclin fold, Cln2 fusion (human)
Technique: yeast growth competition, sequencing
Medium: yeast
Notes: weak parent motif
Relative to: not given
Direction: higher = stronger binding
Endpoint: normalised enrichment score
Parent: SCAPER docking peptide (human); SNARRSLNFGGST; partner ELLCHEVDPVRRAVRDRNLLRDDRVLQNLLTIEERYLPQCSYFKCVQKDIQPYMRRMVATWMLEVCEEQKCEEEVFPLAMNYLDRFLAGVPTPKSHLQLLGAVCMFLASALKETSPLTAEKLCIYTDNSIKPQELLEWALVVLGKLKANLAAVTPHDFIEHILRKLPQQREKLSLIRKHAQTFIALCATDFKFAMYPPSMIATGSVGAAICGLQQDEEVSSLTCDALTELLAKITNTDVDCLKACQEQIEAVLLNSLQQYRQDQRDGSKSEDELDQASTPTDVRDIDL
Variant = SNARRSLNFGGYT [S12Y]; result = 0.439
Variant = SNARRSLNFPGST [G10P]; result = 0.462
Variant = SNARESLNFGGST [R5E]; result = 0.113
Variant = SNARRPLNFGGST [S6P]; result = 0.399
Variant = SNAWRSLNFGGST [R4W]; result = 0.0508
Variant = SNARRGLNFGGST [S6G]; result = 0.417
Variant = SNARDSLNFGGST [R5D]; result = 0.0946
Variant = SNARRSLNNGGST [F9N]; result = -0.465
Variant = SNARRSLSFGGST [N8S]; result = 0.766
Variant = SNARGSLNFGGST [R5G]; result = -0.383
Variant = PNARRSLNFGGST [S1P]; result = 0.0604

Block 2
Target: RNA binding protein fox-1 homolog 2, RRM domain, GST-SBP tag (RBFOX2, Homo sapiens, UniProt O43251-10, residues 100-194)
Technique: RNA Bind-n-Seq
Form: RNA
Medium: in vitro
Concentration: 365 nM
Notes: natural RNA segment, single round, ends assumed
Relative to: no-protein control
Direction: higher = stronger binding
Endpoint: RBNS enrichment (R)
Constant ends, left off below: GGGAGUUCUACAGUCCGACGAUC … UGGAAUUCUCGGGUGCCAA
Sequence = GCCAACACACGGCCCUGCCCCUCUAGGCACCCACCUGCCUCCCACGGACUCCUGGGCAGCACCCAGCCUGACAGUGUCGAGUAUAUUAUUAUUAAUAUUAUUAUGACUUU; result = 0.469
Sequence = UUGUGUGCGUGUACGUGUGCCCCUGUGUGUGGGCCCAGUUUUCAGGCAUGUAGAAUAAGCAUGGAGUCAUAUUGAGGAGGACUCACUUCUUGAAGAUAUGCUUGUUGCUU; result = 4.64
Sequence = UGGAAAGUCAUGCAAUCCCAUUUGCAGGAUCUGUCUGUGCACAUGCCUCUGUAGAGAGCAGCAUUCCCAGGGACCUUGGAAACAGUUGGCACUGUAAGGUGCUUGCUCCC; result = 0.501
Sequence = UUUGCCUUUGGCCUAGUAAGAUGCCUCUCCAGCUACUGAGCCCACAAGUAACAUGAGCGGAUAAAAAGAGACUUGUUUGUGCUAGAAAUGAGGGUCUAUGCUAUGAGGGG; result = 1.16
Sequence = UUGGGAAGAACUGAUUUCUUUUUUUAAAUCAAAGUUUUGUAAAUAGAUCUUACUUCUGAAUUUGAAUCGGUGGAAGACCUCAGUUCACAUGCUAAGUCAAAACGGCCCUU; result = 0.375
Sequence = UCCACCGCCCUGGGAGGCAGCAGCUUCUUCGAGAAGGAUGGAGCCCCCUUCUGCCCCGAGUGCUACUUUGAGCGCUUCUCGCCAAGAUGUGGCUUCUGCAACCAGCCCAU; result = 0.376
Sequence = CAUGAUUUCACAAAUAUUAAAAUGUCUUUUAAAAAGUAUUGCCAAACAGUAAUGUUGAUUUCUAGUUAUUUAUUCUGGGAAUGUAUAGUAUUUGAAAACAGAAAUUGGUA; result = 0.445

Block 3
Target: CEBPE, bZIP domain (human)
Technique: DHFR protein complementation
Medium: yeast
Notes: single substitutions, most at no-binding floor
Relative to: wild-type JUN-FOS pair
Direction: higher = stronger binding
Endpoint: binding fitness
Parent: JUN, bZIP domain (human); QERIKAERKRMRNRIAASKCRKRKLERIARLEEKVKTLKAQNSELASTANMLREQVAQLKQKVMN; partner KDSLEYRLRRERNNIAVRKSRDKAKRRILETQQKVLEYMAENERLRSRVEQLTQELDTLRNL
Variant = V35G; result = -1.43 natural log
Variant = S47M; result = -1.14 natural log
Variant = K39Y; result = -1.35 natural log
Variant = M51W; result = -1.18 natural log
Variant = E32M; result = -1.29 natural log
Variant = R53M; result = -1.02 natural log
Variant = T37W; result = -1.02 natural log

Further values, each from its own experiment
Substance = PhoQ, residues 284 288 289 292 302 303 TTCLQL; target = PhoP, residues 12 14 15 18 19 AWHSL (Escherichia coli, UniProt P23836); test = Sort-seq, refers to: YFP reporter; test system = E. coli; setting = PhoQ-PhoP variant library, with: 10 µM Mg2+; how to read = relative to: high Mg2+ state, higher = stronger signaling; endpoint = fold induction; result = 2.66

For quick reference, copied from above (block 1):
Variant = SNARRPLNFGGST [S6P]; result = 0.399
Variant = SNAWRSLNFGGST [R4W]; result = 0.0508
Variant = SNARRGLNFGGST [S6G]; result = 0.417
